Published values from different studies.
Lines come from different studies, so protocols differ.
Chain of UniProt P08473 (whole entry, looked up): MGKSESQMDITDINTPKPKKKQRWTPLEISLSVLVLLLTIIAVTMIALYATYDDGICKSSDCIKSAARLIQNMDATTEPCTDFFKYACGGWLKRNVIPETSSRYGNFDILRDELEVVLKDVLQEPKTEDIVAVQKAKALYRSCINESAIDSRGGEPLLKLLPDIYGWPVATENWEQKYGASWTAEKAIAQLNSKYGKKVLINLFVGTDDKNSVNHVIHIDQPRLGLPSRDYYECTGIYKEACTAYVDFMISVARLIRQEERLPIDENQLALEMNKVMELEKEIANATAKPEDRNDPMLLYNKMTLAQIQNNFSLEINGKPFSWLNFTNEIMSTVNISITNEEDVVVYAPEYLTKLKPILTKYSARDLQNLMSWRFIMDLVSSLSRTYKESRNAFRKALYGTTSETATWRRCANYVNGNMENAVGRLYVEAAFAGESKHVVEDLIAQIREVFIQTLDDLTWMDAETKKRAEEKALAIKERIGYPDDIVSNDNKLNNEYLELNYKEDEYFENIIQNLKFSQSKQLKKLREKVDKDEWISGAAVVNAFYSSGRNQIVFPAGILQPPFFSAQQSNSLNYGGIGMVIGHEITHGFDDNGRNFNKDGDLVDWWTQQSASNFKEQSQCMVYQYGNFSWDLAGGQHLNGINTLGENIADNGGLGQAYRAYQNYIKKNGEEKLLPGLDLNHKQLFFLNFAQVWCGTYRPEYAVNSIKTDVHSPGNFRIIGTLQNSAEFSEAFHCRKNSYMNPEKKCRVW
Chain of UniProt P55060 (whole entry, looked up): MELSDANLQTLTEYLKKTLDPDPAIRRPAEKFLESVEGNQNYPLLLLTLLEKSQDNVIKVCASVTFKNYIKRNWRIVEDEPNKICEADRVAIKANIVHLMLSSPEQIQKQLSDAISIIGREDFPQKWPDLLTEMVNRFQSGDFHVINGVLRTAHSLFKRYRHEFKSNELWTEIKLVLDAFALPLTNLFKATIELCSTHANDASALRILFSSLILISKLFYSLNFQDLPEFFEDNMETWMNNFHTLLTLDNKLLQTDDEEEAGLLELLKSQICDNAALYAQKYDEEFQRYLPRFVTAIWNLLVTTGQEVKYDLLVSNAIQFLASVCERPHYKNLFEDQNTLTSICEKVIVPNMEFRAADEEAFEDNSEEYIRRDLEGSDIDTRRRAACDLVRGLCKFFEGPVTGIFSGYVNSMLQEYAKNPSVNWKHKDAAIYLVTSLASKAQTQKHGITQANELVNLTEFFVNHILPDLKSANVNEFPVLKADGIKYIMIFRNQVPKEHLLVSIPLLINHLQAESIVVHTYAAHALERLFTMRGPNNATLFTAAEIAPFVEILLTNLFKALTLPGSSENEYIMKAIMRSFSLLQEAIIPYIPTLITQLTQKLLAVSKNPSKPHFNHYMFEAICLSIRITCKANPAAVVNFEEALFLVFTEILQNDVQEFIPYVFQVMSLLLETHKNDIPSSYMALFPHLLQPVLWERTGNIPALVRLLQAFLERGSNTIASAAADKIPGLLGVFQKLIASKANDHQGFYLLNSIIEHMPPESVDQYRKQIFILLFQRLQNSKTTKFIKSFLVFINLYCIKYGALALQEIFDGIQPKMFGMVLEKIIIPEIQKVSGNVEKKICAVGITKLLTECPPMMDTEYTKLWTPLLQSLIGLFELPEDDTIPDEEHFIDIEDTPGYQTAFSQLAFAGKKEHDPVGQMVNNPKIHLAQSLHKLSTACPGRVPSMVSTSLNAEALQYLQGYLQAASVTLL

| Compound | tested on | test | system | setting | scale | endpoint | value |
| --- | --- | --- | --- | --- | --- | --- | --- |
| Cc1cccc(Cn2nc(C3CC3)c3c(NC(=O)c4cnc5cc(OCCN6CCN(C)CC6)ccn45)cccc32)n1 | – | CTCAE v4.03, item: maculopapular rash | patients with advanced solid tumours | oral, all dose levels, with: pembrolizumab 2 mg/kg IV every 3 weeks | – | all-cause adverse events | 21.1% |
| C[C@]1(O)C[C@@](N)(c2ccc(-c3nc4n(c3-c3ccccc3)COc3ccncc3-4)cc2)C1 | – | – | human, advanced or metastatic solid tumours | 16 mg once daily, phase I dose escalation | – | patients with Fatigue TEAE | 0% |
| CO[C@H]1C[C@@H]2CC[C@@H](C)[C@@](O)(O2)C(=O)C(=O)N2CCCC[C@H]2C(=O)O[C@H]([C@H](C)C[C@@H]2CC[C@@H](OC(=O)NCCOCCOCCOCCOCCOCCOCCOCCOCCC(=O)N3CCc4cc(Cn5nc(-c6ccc7oc(N)nc7c6)c6c(N)ncnc65)ccc4C3)[C@H](OC)C2)C[C@@H](O)[C@H](C)/C=C(\C)[C@@H](O)[C@@H](OC)C(=O)[C@H](C)C[C@H](C)/C=C/C=C/C=C/1C | – | – | patients with advanced solid tumours | intravenous, 1.6 mg/3 mg weekly, grade ≥3 | – | incidence of Dysgeusia TEAE | 0% |
| CCN1[C@@H](C(=O)NC23CCC(C(=O)O)(CC2)CC3)[C@H](c2cccc(Cl)c2F)[C@]2(C(=O)Nc3cc(Cl)ccc32)C12CCCCC2 | – | – | patients with advanced solid tumours | oral, dose not given, all doses | – | Lymphocytopenia incidence | 42.9% |
| O[C@H]1CCCN[C@@H]1CCCn1cnc2c(Cl)c(Cl)ccc21 | – | – | healthy humans, plasma | oral, 150 mg single dose | – | Vd/F | 2250 L |
| CCCCCOc1ccc(-c2ccc(-c3ccc(C(=O)N[C@H]4C[C@@H](O)[C@@H](OCC[N+](C)(C)C)NC(=O)[C@@H]5[C@@H](O)[C@@H](C)CN5C(=O)[C@H]([C@@H](C)O)NC(=O)[C@H]([C@H](O)[C@@H](O)c5ccc(O)cc5)NC(=O)[C@@H]5C[C@@H](O)CN5C(=O)[C@H]([C@@H](C)O)NC4=O)cc3)cc2)cc1 | – | – | adult ICU patients, mITT, serum | dose not given, day 30 | – | alkaline phosphatase | 184 U/L |
| [O-][S+]1CCc2nc(N3CCC(c4ncc(Cl)cn4)CC3)nc(NC3(CO)CCC3)c21 (stereo not shown) | – | item: Constipation | healthy male humans | 48 mg single dose | – | adverse event incidence | 0% |
| CC1(C)[C@H](C(=O)O[C@H](C#N)c2cccc(Oc3ccccc3)c2)[C@@H]1C=C(Br)Br | – | item: CYP2C19 | human, age 1 year, recombinant human CYP2C19 | 0.1 µM | – | enzyme contribution to clearance | 0.47% |
| COc1cccc2c1CCCC2CCCN1CCN(C2CCCCC2)CC1 (stereo not shown) | – | – | CD-1 mouse, male, lung | intraperitoneal, 30 mg/kg | – | half-life | 3.1 h |
| CC(C)[C@H](N)C(=O)NCCCS(=O)(=O)O | – | – | human | oral, 265 mg twice daily, 7 h post-dose, steady state, week 65 | – | plasma concentration | 0.09 µg/mL |
| C[C@@H]1OC(=O)NN=C1c1ccc(-c2ccc(F)cc2)c(C(F)(F)F)c1 | – | phase I trial, item: Fatigue all grades | human patients | 5 mg once daily | – | patients with adverse event | 0% |
| C[C@H]1CN(c2n[nH]c3nc(N[C@H]4CC[C@H](NS(=O)(=O)CCC(F)(F)F)CC4)ncc23)CCO1 | Exportin-2 (Homo sapiens, UniProt P55060) | competitor, Kinobeads competition | human cell extract | 0.16 µM | relative to: vehicle | relative abundance | 1.03 |
| CC[C@H](C)CCCCC(=O)N[C@@H](CCN)C(=O)N[C@H](C(=O)N[C@@H](CCN)C(=O)N[C@H]1CCNC(=O)[C@H]([C@@H](C)O)NC(=O)[C@H](CCN)NC(=O)[C@H](CCN)NC(=O)[C@H](CC(C)C)NC(=O)[C@@H](Cc2ccccc2)NC(=O)[C@H](CCN)NC1=O)[C@@H](C)O | – | – | human, critically ill, AKI, plasma | intravenous, dose not given, mean | – | clearance | 1.17 L/h |
| COc1cc(Nc2ncc(F)c(Nc3ccc4c(n3)NC(=O)C(C)(C)O4)n2)cc(OC)c1OC | Neprilysin (MME, Homo sapiens, UniProt P08473) | enzyme activity, inhibitor | – | – | – | IC50 | > 10 µM |
| CC[C@H](C)[C@H](NC(=O)[C@H](Cc1ccccc1)NC(=O)[C@H](CCC(=O)O)NC(=O)[C@H](CCCNC(=N)N)NC(=O)[C@H](C)NC(=O)[C@H](C)NC(=O)[C@H](CCC(N)=O)NC(=O)[C@H](CCC(=O)O)NC(=O)[C@H](CCC(=O)O)NC(=O)[C@H](CC(C)C)NC(=O)[C@H](Cc1ccc(O)cc1)NC(=O)[C@H](CO)NC(=O)[C@H](CO)NC(=O)[C@@H](NC(=O)[C@H](CC(=O)O)NC(=O)[C@H](CO)NC(=O)[C@@H](NC(=O)[C@H](Cc1ccccc1)NC(=O)[C@@H](NC(=O)CNC(=O)[C@H](CCC(=O)O)NC(=O)[C@H](C)NC(=O)CCc1cnc[nH]1)[C@@H](C)O)[C@@H](C)O)C(C)C)C(=O)N[C@@H](C)C(=O)N[C@@H](Cc1c[nH]c2ccccc12)C(=O)N[C@@H](CC(C)C)C(=O)N[C@H](C(=O)N[C@@H](CCCNC(=N)N)C(=O)NCC(=O)N[C@@H](CCCNC(=N)N)C(=O)N[C@@H](CCCCNC(=O)COCCOCCNC(=O)COCCOCCNC(=O)CC[C@H](NC(=O)CCCCCCCCCCCCCCCCC(=O)O)C(=O)O)C(=O)NCC(=O)NCC(=O)N[C@@H](CO)C(=O)N[C@@H](CCSC)C(=O)N[C@H](C(=O)N[C@@H](CCCCNc1c(NCCCCCN(O)C(=O)CCC(=O)NCCCCCN(O)C(=O)CCC(=O)NCCCCCN(O)C(C)=O)c(=O)c1=O)C(=O)O)C(C)C)C(C)C [zirconium-89 labelled] | – | ex vivo gamma counting | male Sprague-Dawley rats, muscle | intravenous, 1 nmol, 72 h, mean of 3 animals | – | tissue uptake | 0.046 %ID/g |
| COc1cc2c(Oc3ccc4[nH]c(C)cc4c3F)ccnc2cc1OCC1(N)CC1 | – | – | paediatric recurrent refractory sarcoma | concentration not given, whole group | – | grade 3 Thrombocytopenia | 0% |
